Results gathered from unrelated publications.
Each numbered part is a random draw from the data of one study; scales do not carry over between parts. Substitutions count along the parent as printed.

Study 1
Target: RING finger protein unkempt homolog, zinc fingers 1-6, GST-SBP tag (UNK, Homo sapiens, UniProt Q9C0B0, residues 30-357)
Technique: RNA Bind-n-Seq
Molecule type: RNA
Sample: in vitro
Concentration: not given
Setting: RNA with constant flanks, human and mouse sites, ends assumed
Relative to: input RNA pool
Direction: higher = stronger binding
Shared flanks, not repeated: GGGAGUUCUACAGUCCGACGAUC … CAACAGAGGAUUGAGCAUCA
Target sequence (chain): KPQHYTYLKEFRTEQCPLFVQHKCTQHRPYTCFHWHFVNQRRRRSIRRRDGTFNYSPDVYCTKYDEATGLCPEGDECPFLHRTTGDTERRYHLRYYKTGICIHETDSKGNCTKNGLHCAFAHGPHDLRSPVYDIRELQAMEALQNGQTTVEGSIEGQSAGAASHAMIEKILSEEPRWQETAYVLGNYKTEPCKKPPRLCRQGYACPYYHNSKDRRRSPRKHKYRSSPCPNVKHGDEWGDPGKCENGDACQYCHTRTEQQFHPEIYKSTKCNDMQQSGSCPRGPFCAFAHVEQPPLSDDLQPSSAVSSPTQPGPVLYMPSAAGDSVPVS
Sequence | bound/input enrichment [ratio]
AUGUAUGAAGAUGCCCAACUUCAGAUAUAUACUUUAAUGCACAGAGAUUCUUUUCCAAGGUUUUUGAACUCUCAAAUUUAUAAGUCAUUUGUUGAAAGUACUGCUGGCUCUUCUUCUGAA | 0.594
AUCUGAAUAAGUUAAAGACAAUUGAUGUUAUAGUCCGUAGCAUGCAGGAUGCUGAGCUGUUGGUCAAAGGUUAUGAGAUCAAGCUGAGUCAAGAGGAAGCAGUGCCAGCAGACCUCUCAG | 0.66
AGAGAAGACACAUUUUCUAGUGAUGCAGAGAUUAACAAAUCACCUGUCAGCUUUACUGAAGAGCUUCACAGUGAGAGAAAGGACCACACACCCAAGGAUACCACAACAGUCUUCUGUCCA | 0.0963
CAGAUCCCUUCCAGCUAAAACCCUUCCCCCUUCCCUCCAUGUGUUUCUCAGUUUCCCGUUUCGUUUGUUGGACUGUUCCACUGCCCCUCCUCCUCACCCUAUCACCCAUGGAUCGUAAUG | 1.25
GUCCCGUUUGACUUUACACAUAAAAAACAAUCAGGUGGUGCAGGCCAGUAUGGAAAAGUAAUAGGUGUCCUGGAGCCUCUGGACCCAGAGGACUACACUAAAUUGGAAUUUUCAGAUGAA | 0.346
AGUUUUAAGCAGACAUGGAUGAAUAAUAUGAUGAAGACUUCUGAAGCCAAAAUUAAACAUUUUGAUGGUGAAGAUUACACAUGCAUAACAUUCCAACCAGAUCUGUCCAAAUUUAAGAUG | 0.155
AGUGCAGUUUUCCCUGAGAUACCUGUCGUGAAAAGGUUUAUGGGACAGUUUUUCAGAAAGAUGCAUUGACUCUGAAGUUCUCUCUGUUGAGAGCGUCUUCAGUUGGAAGACUUGGAACUG | 0.102
GUCCAGAAGCGCUUUGGCUUCCCUGAAGGCAGCGUAGAGCUUUAUGCAGAGAAAGUGGCCACAAGAGGUCUGUGUGCCAUUGCCCAGGCAGAGUCUCUACGCUACAAACUCCUUGGAGGG | 0.118
AAGUUUGUACCCCUGUCCUUCCCUUUACGCCACUAGUGUGUAGGCAGAUGUCUGAGUCCCUAGGUGGUUUCUAGGAUUGAUAGCAAUUAGCUUUGAUGAACCCAUCCCAGGAAAAAUAAA | 0.605
UCCUGGAUGUGACAUUACUUAUUAAUCUUUUAGACAACCCUGUUAGGGAGGGUUCUUUACCUUUGAUCUCCUAUGGCCUUAUUCAGGAGGAAACCCCUGUGUCUUGAGACCAGGAAGAUA | 2.41
GUUUUUAGAAGUUAUGAACCUGGUGAACCAAACUGCAGAAUUUAUGUAAAGAAUUUAGCUAGACAUGUUCAGGAAAAGGACCUUAAAUUUAUAUUUGGAAGAUACGUUGACUUUUCUUCA | 3.43

Study 2
Target: CCND2, cyclin fold, Cln2 fusion (human)
Technique: yeast growth competition, sequencing
Sample: yeast
Setting: weak parent motif
Relative to: not given
Direction: higher = stronger binding
Starting sequence: CDC6 docking peptide (human); TLKGRRLVFDNQL; partner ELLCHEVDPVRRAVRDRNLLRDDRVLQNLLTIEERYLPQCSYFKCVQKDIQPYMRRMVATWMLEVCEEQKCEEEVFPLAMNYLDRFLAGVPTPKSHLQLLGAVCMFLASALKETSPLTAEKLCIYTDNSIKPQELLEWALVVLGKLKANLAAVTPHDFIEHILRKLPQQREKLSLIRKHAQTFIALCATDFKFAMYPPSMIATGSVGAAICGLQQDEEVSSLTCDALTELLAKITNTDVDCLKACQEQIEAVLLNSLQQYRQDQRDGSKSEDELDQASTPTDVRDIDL
Variant | normalised enrichment score
TLKGRRLVFDNGL [Q12G] | 0.781
TLKGRNLVFDNQL [R6N] | 0.0452
RLKGRRLVFDNQL [T1R] | -0.228
TLKGRPLVFDNQL [R6P] | 0.0665
TLKGRRGVFDNQL [L7G] | -0.0685
TKKGRRLVFDNQL [L2K] | 0.369
TLKGRVLVFDNQL [R6V] | 0.787
TLIGRRLVFDNQL [K3I] | 0.513
ELKGRRLVFDNQL [T1E] | 0.341
TLKGRRLSFDNQL [V8S] | 0.274
TLKGRRLVFDFQL [N11F] | 0.764
TLKGRRLVFDKQL [N11K] | 0.0906
TLKGPRLVFDNQL [R5P] | 0.366
TLKGRRLVFDMQL [N11M] | 0.0385
TLKGRRPVFDNQL [L7P] | -0.205
TLKGRRLVFDQQL [N11Q] | 0.552
TGKGRRLVFDNQL [L2G] | 0.296
TLKGRRLVGDNQL [F9G] | -0.0273
TLSGRRLVFDNQL [K3S] | 0.253
TLKHRRLVFDNQL [G4H] | 0.182
TLKGRRAVFDNQL [L7A] | 0.136
TLKGRRLVLDNQL [F9L] | -0.0983
TLKGRRLVFDVQL [N11V] | 0.349
TLKVRRLVFDNQL [G4V] | 0.385
LLKGRRLVFDNQL [T1L] | -0.13

Study 3
Target: Sal-like protein 4, full length isoform A (SALL4, Homo sapiens, UniProt Q9UJQ4, residues 1-1053)
Chain of UniProt Q9UJQ4 (whole entry, looked up): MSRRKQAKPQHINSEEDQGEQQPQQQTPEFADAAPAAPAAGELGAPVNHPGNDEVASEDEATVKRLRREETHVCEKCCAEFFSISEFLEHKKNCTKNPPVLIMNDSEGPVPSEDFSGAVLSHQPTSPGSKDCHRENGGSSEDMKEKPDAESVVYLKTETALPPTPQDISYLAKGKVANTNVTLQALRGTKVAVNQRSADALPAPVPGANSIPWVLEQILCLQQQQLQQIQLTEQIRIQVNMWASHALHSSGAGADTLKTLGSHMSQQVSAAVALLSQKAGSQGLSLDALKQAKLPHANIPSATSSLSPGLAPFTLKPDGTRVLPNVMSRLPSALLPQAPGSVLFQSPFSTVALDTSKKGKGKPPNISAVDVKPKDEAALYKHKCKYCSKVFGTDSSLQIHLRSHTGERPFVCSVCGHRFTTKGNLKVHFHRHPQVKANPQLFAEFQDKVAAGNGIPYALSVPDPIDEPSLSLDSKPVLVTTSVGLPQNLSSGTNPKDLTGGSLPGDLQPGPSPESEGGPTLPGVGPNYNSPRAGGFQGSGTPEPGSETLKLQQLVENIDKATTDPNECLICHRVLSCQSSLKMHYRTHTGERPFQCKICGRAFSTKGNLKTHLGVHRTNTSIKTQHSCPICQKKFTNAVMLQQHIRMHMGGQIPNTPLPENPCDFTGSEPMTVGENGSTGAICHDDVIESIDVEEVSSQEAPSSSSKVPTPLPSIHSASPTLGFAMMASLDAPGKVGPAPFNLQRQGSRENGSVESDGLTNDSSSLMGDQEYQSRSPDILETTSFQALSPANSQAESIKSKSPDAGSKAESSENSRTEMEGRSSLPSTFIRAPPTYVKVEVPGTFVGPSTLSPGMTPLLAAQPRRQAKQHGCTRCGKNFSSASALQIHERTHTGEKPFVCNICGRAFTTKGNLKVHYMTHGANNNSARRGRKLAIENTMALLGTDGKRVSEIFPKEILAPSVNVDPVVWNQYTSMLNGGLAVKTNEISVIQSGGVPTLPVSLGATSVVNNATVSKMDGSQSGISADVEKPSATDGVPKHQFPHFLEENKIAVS
Technique: universal PBM
Molecule type: double-stranded DNA, one strand shown
Sample: in vitro
Concentration: 600 nM
Setting: 8-mer, flanks averaged, mean of replicates
Direction: higher = stronger binding
Sequence | E-score
CTTTCAAC | 0.0269
CTATGTCC | -0.0635
ATTGGGAC | 0.0169
AGAGTCCT | -0.194
CTTCTAGC | -0.215
GGTCTTGA | -0.206
GCTTTAAA | 0.105
GCTATCAC | -0.0424
AAAGTCAT | 0.17
TCGAGCCA | -0.179
GGTCCCCA | -0.395
GATGTACA | 0.167
GAGAACTC | -0.205
ACGCACCA | -0.207
AATTCCAG | -0.0233
AGTGGCAT | -0.07
GAGTACGA | 0.0792
AAAGACTA | 0.0685
GCGAGGGA | -0.149

Study 4
Target: RNA binding protein fox-1 homolog 2, RRM domain, GST-SBP tag (RBFOX2, Homo sapiens, UniProt O43251-10, residues 100-194)
Technique: RNA Bind-n-Seq
Molecule type: RNA
Sample: in vitro
Concentration: 365 nM
Setting: natural RNA segment, single round, ends assumed
Relative to: no-protein control
Direction: higher = stronger binding
Shared flanks, not repeated: GGGAGUUCUACAGUCCGACGAUC … UGGAAUUCUCGGGUGCCAA
Target sequence (chain): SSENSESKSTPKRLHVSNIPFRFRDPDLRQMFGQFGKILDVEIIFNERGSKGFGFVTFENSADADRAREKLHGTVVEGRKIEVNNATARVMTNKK
Sequence | RBNS enrichment (R)
UUUAUCCAUAUAACUUCUCUUCUGAAAACUGAGGAGUGUCCUCUGUUCUUCCAGUUCACGAGGGCAGGGGGUUUAAAACAAGAAUGAUAGGCCAGGAAGGCAGUGGGGAU | 0.675
CCAUAGUACUUAAAUUGAACAGUUGCAAAGAUGUCUUAAUUGUGUAAAGAAUUGGUGUAGUCAUGACUUUAGCUGAUACUCUUAUGUACGAGAUCUGUCUCUGCUGUUUA | 0.587
UUCCCUAAUCCCCUUUUGAUUUGUUUCCAAAAUAAAAGAGAAUCUUUUCUUCCCUACCCCAGGCUUCCCCAGGCAUUCUCUUGGGAACACAGAAGCAUCAAGGGAGCCCA | 0.581
GGCUGGAAACCCAGGUGUUGUGCUGGCACUGCCCAGGCUGAGACUCUUCAAGUCCCGCUGACGUCUGAGCUUUGAUGCUUAAGAGGGGUGAGGCAGGGAGCGGACUUCCU | 0.618
AUUAUUUAUAAAUUCCACCCAAAGUGGACAGAGUCAGGUGCCAGACCUGAUCUGAAGUGCACCAAGGAAGUAUCUGGUGGUUCUCCUGAGAUGGGGGCCUUGCAGCCCAG | 0.618
CCAAGUGGCCUUGUCCCAGCUCCCCCUGCCCCCCCCAAGGCUGGUGUGAGUGUGCAAGUAUGUGUGCAGAGCUUGUGUUUCAUACUGCAGAUAUAAAUAAAGGAAGAUAG | 1.29
UUUAUUUCUCACCAAAAUAAAAGCAUUUAUGAGAAUUAUAAGUAAAGCUUUCUGUAUUUCAGAGAGACAUAAGUUACUAGAAAGUGAAAAGUGAAUAAAUAAGUCACAGA | 0.58
AGACAUGGGGCAUGUGUCUGCCAAUAGCCAGUUGUUCUCAGUGUGCACUAUGUAGGUCCCCAUCCACUACUUGACCACCUUUAUCAUUUACGGGGAUUUACAUAGAUUAC | 2.25
UUUAUGCUGAAUACAUUUGUAAAUACUCAGUUUUAUACUGUAUGUAUAUGAUUGCUACUCUAAAGGUUUGGAUAUAUGUAUUGUAAUUAGAAUUGUUGGCAUGAUGACAU | 3.92
CAGCUUCCUGGCUGGUACCCAUGAUAACAAUUGAGCUGAACCUGGGGACCCCUGGUUGGGGAACAGGUGAGUUCUAUUUGAGACUUCCAGCCCUAGAAAGCUGCCUCCGU | 0.355
GGAGUCAACAGAGUCACUGGGAACUGAGGCAGGAGUAUCAUCUGUGGGAGCUGGCUGCCCCACCCACACUCUCCAUCCCAUUCAAGACUGUGCCAUACCAGCUGAUCUGU | 0.644
AACAUUUGAUCUAGCAGCAGGGAUGAGAGGAAAGCAGAAAUGAAUGAACUGUGAAAGCUCCUGUUUUUAUUAUCAAAAAGGACACUGUCAAGAAGGCGCCCCCUGCCCCC | 2.15

Some of these lines once more (study 1):
Sequence | bound/input enrichment [ratio]
GUCCCGUUUGACUUUACACAUAAAAAACAAUCAGGUGGUGCAGGCCAGUAUGGAAAAGUAAUAGGUGUCCUGGAGCCUCUGGACCCAGAGGACUACACUAAAUUGGAAUUUUCAGAUGAA | 0.346
AGUUUUAAGCAGACAUGGAUGAAUAAUAUGAUGAAGACUUCUGAAGCCAAAAUUAAACAUUUUGAUGGUGAAGAUUACACAUGCAUAACAUUCCAACCAGAUCUGUCCAAAUUUAAGAUG | 0.155
AGUGCAGUUUUCCCUGAGAUACCUGUCGUGAAAAGGUUUAUGGGACAGUUUUUCAGAAAGAUGCAUUGACUCUGAAGUUCUCUCUGUUGAGAGCGUCUUCAGUUGGAAGACUUGGAACUG | 0.102
GUCCAGAAGCGCUUUGGCUUCCCUGAAGGCAGCGUAGAGCUUUAUGCAGAGAAAGUGGCCACAAGAGGUCUGUGUGCCAUUGCCCAGGCAGAGUCUCUACGCUACAAACUCCUUGGAGGG | 0.118
AAGUUUGUACCCCUGUCCUUCCCUUUACGCCACUAGUGUGUAGGCAGAUGUCUGAGUCCCUAGGUGGUUUCUAGGAUUGAUAGCAAUUAGCUUUGAUGAACCCAUCCCAGGAAAAAUAAA | 0.605
